Experimental data gathered from unrelated publications.
Parts stem from different laboratories: compare values within a part only. Substitutions count along the parent as printed.

Block 1 — target: CCNA1, cyclin fold, Cln2 fusion (human); method: yeast growth competition, sequencing; sample: yeast; setting: strong parent motif; baseline: not given; direction: higher = stronger binding
Starting sequence: viral docking peptide; YKVKRRLVFGADD; partner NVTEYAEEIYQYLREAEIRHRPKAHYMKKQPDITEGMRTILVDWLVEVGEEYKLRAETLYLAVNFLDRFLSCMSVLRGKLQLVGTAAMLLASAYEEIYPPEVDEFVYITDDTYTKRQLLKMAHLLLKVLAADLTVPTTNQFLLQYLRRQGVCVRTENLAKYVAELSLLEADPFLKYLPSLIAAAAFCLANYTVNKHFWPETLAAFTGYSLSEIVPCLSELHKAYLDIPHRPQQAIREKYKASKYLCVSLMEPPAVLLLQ
Variant | normalised enrichment score
V3W | -0.0378
F9M | 0.865
V8L | 0.959
V3P | 0.922
V3M | 0.362
G10W | 0.778
R5I | -0.00086
R6L | 0.227

Block 2 — read-out: binding; method: phage display NGS; form: peptide; concentration: concentration not given; baseline: input library
Target: UDP-N-acetylglucosamine--peptide N-acetylglucosaminyltransferase 110 kDa subunit (OGT, Homo sapiens, UniProt O15294)
Chain of UniProt O15294 (whole entry, looked up): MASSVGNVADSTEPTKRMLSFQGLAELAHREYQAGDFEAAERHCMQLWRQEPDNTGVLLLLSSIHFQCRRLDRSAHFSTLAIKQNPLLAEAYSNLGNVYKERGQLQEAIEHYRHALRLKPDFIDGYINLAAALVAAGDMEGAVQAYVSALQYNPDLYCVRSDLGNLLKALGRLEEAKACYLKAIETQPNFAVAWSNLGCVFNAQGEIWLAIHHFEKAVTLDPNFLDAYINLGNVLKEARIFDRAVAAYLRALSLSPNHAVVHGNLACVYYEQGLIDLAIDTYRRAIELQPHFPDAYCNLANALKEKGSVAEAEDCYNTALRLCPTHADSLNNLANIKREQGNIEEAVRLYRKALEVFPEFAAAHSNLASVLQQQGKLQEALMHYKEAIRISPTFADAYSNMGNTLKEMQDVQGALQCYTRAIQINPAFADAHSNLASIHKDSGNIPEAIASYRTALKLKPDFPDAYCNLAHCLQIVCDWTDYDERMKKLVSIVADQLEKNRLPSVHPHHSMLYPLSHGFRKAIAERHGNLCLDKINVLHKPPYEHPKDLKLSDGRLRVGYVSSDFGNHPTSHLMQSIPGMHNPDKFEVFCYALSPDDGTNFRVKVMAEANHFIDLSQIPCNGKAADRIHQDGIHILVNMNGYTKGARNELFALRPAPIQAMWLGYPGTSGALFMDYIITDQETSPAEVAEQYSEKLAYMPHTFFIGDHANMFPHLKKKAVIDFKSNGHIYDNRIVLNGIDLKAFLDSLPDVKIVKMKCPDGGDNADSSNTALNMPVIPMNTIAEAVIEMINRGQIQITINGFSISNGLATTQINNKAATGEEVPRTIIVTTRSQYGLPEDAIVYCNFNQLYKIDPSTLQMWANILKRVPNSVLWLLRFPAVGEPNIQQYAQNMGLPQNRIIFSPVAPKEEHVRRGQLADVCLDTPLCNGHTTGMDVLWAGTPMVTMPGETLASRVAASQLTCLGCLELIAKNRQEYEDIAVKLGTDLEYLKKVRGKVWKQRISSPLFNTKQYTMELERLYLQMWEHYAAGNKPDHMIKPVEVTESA
Sequence | enrichment fold change
ANTLDYTPFYTIEY | 1.83
TDKHQHMHHVTHVA | 12.8
HQSPHHRTVEHQVT | 5
RVQIMPVYQIDIPSA | 13.2
YTSHYPVHVHHYPQ | 12.5

Block 3 — target: vanadate, free oxyanion; method: microfluidic competitive inhibition; sample: in vitro, cell-free expressed; concentration: not given; direction: lower = stronger binding
Setting: derived from inhibition constants, unchanged parent 676 nM
Starting sequence: PafA, mature enzyme, eGFP fusion (Elizabethkingia meningoseptica, UniProt Q9KJX5); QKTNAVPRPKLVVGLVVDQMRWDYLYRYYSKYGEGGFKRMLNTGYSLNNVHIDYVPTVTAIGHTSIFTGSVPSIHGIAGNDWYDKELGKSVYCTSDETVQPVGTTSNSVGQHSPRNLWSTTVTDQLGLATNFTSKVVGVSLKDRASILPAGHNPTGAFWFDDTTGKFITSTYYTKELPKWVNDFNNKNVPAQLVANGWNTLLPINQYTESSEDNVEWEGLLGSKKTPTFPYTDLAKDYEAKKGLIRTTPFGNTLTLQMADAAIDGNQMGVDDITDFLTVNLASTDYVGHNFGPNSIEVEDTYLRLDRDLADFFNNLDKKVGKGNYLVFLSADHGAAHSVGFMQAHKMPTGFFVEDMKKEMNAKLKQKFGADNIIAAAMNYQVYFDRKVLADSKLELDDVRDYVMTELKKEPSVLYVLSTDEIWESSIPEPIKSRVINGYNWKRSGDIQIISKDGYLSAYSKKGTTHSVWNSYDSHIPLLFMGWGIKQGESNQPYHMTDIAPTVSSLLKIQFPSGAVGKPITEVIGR
Variant | oxyanion analog dissociation constant
Q510G | 713 nM
V55G | 721 nM
D420G | 719 nM
W423G | 574 nM
K10V | 679 nM
N214G | 666 nM
D446V | 934 nM
H466G | 23.3 µM

Further values, each from its own experiment
Compound | cell line | conditions | scale | quantity | result
CN1C(=O)OC(C)(C)C1=O | HEK-293T/ACE2 | concentration not given, 16 (unit not given) | baseline: vehicle | viability | 101%

Excerpt of the above (block 3):
Variant | oxyanion analog dissociation constant
V55G | 721 nM
D446V | 934 nM
